Assay results gathered from unrelated publications.
A part holds a random share of what one study measured. Changes are numbered by the printed parent chain.

Block 1
Target: CCNA2, cyclin fold, Cln2 fusion (human)
Method: yeast growth competition, sequencing
Matrix: yeast
Notes: strong parent motif
Relative to: not given
Direction: higher = stronger binding
Starting sequence: E2F2 docking peptide (human); LPAKRKLDLEGIG
| Change | normalised enrichment score |
| --- | --- |
| K6A | 1.88 |
| E10A | 3.26 |
| L9F | 5.7 |
| R5A | 1.37 |
| K4A | 4.1 |
| R5A L7A | 0.263 |
| P2A | 3.42 |
| G11A | 2.99 |
| R5K L9F | 5.75 |

Block 2
Target: RNA binding protein fox-1 homolog 2, RRM domain, GST-SBP tag (RBFOX2, Homo sapiens, UniProt O43251-10, residues 100-194)
Method: RNA Bind-n-Seq
Form: RNA
Matrix: in vitro
Tested at: 365 nM
Notes: natural RNA segment, single round, ends assumed
Relative to: no-protein control
Direction: higher = stronger binding
Residues (chain): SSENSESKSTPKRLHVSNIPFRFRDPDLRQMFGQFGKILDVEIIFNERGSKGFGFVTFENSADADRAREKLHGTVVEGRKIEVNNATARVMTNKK
| Oligonucleotide | RBNS enrichment (R) |
| --- | --- |
| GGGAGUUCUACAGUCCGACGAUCAAAGAAAAAUACAAGACAAAAACCUUCUAGCACUUUGUAAACACAGUGAAUAACCUCUUGGAGUAUUUUUGGCUUUAUAUAAAACAAGGUUUUUAAUUGUAAAAUAUAAGUGGAAUUCUCGGGUGCCAA | 0.742 |
| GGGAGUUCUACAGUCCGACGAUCUGAACUCUUAAUCCUCCGCCUUGGCCCUCUAAGGGCUGCUAGUCCGAGUGUGGACAACCACACCUGGCUCUGGCGUCUGGCGGUCACUUGACGCUCAUCUGCGUCUCCGUUGGAAUUCUCGGGUGCCAA | 0.132 |
| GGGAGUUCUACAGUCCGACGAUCGAGCCAUCUCUCCAGCCCCCUAGACCCCCUUUCUUAUCACUCACACAGACACACUGUGUCUUGUGUCUUGUGAGUCCAGCACCUGGUCCCACCCUCAGUCCCCAUGUUAGUGGAAUUCUCGGGUGCCAA | 0.522 |
| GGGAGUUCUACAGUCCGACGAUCACCUUGGAGGAGAAAGUAAUUUCUAAAUAUACAGAGAGGUAACUUGACUAUAUAUGUUGCAUCCUGUGCCUCCCUUCAUAUUAAUAUUUGAUAAAGAUUUUAAUUUAUGUUGGAAUUCUCGGGUGCCAA | 0.353 |
| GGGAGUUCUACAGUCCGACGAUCUCAUGAGAAGUUUGAUUCAGUAACUUGUGAUGGAGGAUUCUUUGGUAUCUUACUGUUUGGUUAAGGCACUAAUUUUACUUACCUAUUAGAUUUUGAAAGUAUCUGAGAUAUGGAAUUCUCGGGUGCCAA | 0.588 |
| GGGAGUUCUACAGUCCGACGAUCCCUGAGAAACUUGUAACCUAUGUGCCUCAAUAUAUUCCAUAGAAAGUAGGUCCCCCUGCCUUCUCCCACUCCUCACACUCUUCUACAGGGAUAGGCUUUUGCAAAUAUAUUGGAAUUCUCGGGUGCCAA | 0.606 |
| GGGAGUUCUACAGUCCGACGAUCUAACUGCCAUCCCCUUCUGUGAGUUAUGUACGGGGACUUAGACUGUCCUGUGCAGAGGUGGAGGGCAGCUGUCUACAGGCUUCCUAGAGGUCACAUGCAGGACUGGGGUGUGGAAUUCUCGGGUGCCAA | 1.57 |
| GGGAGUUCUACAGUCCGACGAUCUGUGGAGCUGCGGCAGUAGGCCCCCAGCCCCCCCCCGGAGCUGCGCCCUGGAUCCUCACACUACAGAUCAGGCCUUCUUUGGUUCUUGGGUGGUUUUGGGUUUUUUCUGUUGGAAUUCUCGGGUGCCAA | 0.82 |

Block 3
Target: RING finger protein unkempt homolog, zinc fingers 1-6, GST-SBP tag (UNK, Homo sapiens, UniProt Q9C0B0, residues 30-357)
UniProt Q9C0B0, sequence (30-357, looked up): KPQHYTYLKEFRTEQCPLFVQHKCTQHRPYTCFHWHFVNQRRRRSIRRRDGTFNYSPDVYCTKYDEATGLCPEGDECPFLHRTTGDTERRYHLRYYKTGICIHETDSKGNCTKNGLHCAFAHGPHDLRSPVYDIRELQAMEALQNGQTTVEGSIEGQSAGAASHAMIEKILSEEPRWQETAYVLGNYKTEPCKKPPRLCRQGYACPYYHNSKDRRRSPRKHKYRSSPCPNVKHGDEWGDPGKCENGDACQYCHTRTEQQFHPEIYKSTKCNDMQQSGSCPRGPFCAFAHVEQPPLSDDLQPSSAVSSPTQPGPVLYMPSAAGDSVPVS
Method: RNA Bind-n-Seq
Form: RNA
Matrix: in vitro
Tested at: not given
Notes: RNA with constant flanks, human-mouse chimeric sites, ends assumed
Relative to: input RNA pool
Direction: higher = stronger binding
| Oligonucleotide | bound/input enrichment [ratio] |
| --- | --- |
| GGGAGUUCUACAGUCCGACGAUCGGCCUGGACCUUCCUGGGGCUAGUACAAAUAGCGGCAGUGGAGGCUCGAGAGGAAAGUUGUUAGUGGGAGGCAGUGGUAGAGGCCGUCAUGUACGGUCCUUUACUCGAUAGAUGUGUUCUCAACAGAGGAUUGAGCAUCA | 0.29 |
| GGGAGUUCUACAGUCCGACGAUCAAAGCCCAAGUAUUUUGAAAAAAUUCAAACAGAUUUGACAAGGGUAGCCAGCUUGGAGUCUAGCAACUUGCCAAUGUGUUUACCAAUCUGGGGGCUUGUUUUUCUUUCCCUUCCUUAAAUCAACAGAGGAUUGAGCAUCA | 0.331 |
| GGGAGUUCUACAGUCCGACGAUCGUGUCCUUUCAACUUAAUAAAUCACUGAGGCAUCUCUACUGUUCUGUGAGCAUCAGGACUGUAGCGCUGUGUCACCACAUGAGAGUUCAGAAGCAGCCUUUCUGUGGAGGGUGGGAAUGACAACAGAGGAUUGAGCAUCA | 0.193 |
| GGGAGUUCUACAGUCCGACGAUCCUGUGUGUGCUGAAUAAAUGGCUUGUAAAGAAGUUUUUCCAAGCUGUAACCCAUGCUGUUAUUAUAGUUGCUGCAAAAUGUUCUUCCUAUUGAUGUUUUUAUUUGUUAACUGAAGGUCUCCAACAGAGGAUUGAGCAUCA | 0.278 |
| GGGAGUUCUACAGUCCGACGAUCCCCCACAUACCAUCUGUGGUCUGGAACUGCACUCUCUUUUUUAAAAAACAUGUAUACAUUUUAGGGCUGUAGAUUUAUUUUCCUGGUUUUGUUUUUCAUUGCUGACUUUUGAGCACAGAACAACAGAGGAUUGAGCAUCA | 2.3 |
| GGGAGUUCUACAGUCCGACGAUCAGUGUGCAGGAAUUCAUGACCUUCACGAGUCAACUGAUUGUGGAACGCUCGGGGAAAGGCAGCAGAGCUUCUGUCAAAGAACAAGAGUAUCUUUGCCAUGUCUACGUCCGGAAUGAUAGUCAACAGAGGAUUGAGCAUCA | 0.126 |
| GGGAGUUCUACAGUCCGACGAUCUCUGGUCACACUCGUGUGUAUGGUGUUUGCUUUGUUGACACUUCACUGGGCAAGUUUUUCAUCGGCCAGUUUUCGGAUGACCGCCACUGUUCCAGAUUUAGGACGCUAGUGGCUCACUAUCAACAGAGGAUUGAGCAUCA | 0.228 |
| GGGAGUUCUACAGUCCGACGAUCCAGGGCACAGCACCUACCCCCUCCUCCUUUCCACACCUGCAAACUCUUUUACUUGGGCUGAAUAUUUAGUGUAAUUAACAUCGCAGCUUGAGGGCUCCUGUGGCAAAUUCCCGGAUUAAACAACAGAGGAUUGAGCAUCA | 1.37 |

Block 4
Target: Interferon regulatory factor 7, full length, phosphomimetic (IRF7, Homo sapiens, UniProt Q92985, residues 1-503, S471D/S472D/S475D/S476D/S477D/S483D/S484D/S487D)
UniProt Q92985, sequence (whole entry, unmodified, looked up): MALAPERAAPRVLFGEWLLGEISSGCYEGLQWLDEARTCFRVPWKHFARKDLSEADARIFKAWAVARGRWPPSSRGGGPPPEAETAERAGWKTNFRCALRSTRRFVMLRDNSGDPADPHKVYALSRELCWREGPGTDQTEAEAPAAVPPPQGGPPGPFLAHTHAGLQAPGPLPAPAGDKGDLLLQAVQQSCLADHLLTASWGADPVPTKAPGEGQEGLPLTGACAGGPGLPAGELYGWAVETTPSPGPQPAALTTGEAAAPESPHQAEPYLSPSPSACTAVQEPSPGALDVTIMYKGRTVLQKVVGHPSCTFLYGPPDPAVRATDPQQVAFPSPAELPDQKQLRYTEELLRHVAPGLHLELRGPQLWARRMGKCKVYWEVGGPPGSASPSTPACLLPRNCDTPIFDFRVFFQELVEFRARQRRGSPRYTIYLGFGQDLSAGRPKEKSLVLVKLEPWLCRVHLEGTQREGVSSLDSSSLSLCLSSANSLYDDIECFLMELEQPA
Method: protein-binding microarray
Form: double-stranded DNA, one strand shown
Matrix: in vitro
Tested at: 2200 nM top
Notes: 60-bp whole probe
Together with: salmon DNA 0.4 mg/ml
Relative to: random background probes
Direction: higher = stronger binding
Shared flanks, not repeated: GCCTAGCAC … GTCTTGATTCGCTTGACGCTGCTG
| Oligonucleotide | fitted relative affinity |
| --- | --- |
| CATCCAGCAGAGAGCCTCAGGTGCTAG | 0.0691 z-score |
| ATAGGTATCCTTATCCTTTAGTGCTAG | 0.798 z-score |
| TGAGGTATCGGTTTCGGTTAGTGCTAG | 6.96 z-score |
| TAATTTCCATTTTCTAAATGCGTGCTA | 4.73 z-score |
| TCATAATTCTTTGCTCATACTGTGCTA | 0.626 z-score |
| TTAGAACTGAGTCTGGATTAGTGCTAG | -0.421 z-score |
| TCATCTTATCCTATCAGACTGTGCTAG | 2.31 z-score |
| GACGGTTTCGACACTGGGGTCGTGCTA | 2.52 z-score |
| TCATATTTGCTTCAGGTACTGTGCTAG | 1.59 z-score |
| TCAAGTCTTCTCCTCTAACTGTGCTAG | 0.672 z-score |
| TTAGATCTCAGTATCGAGTAGTGCTAG | -0.105 z-score |
| GACTGTATCGACTTTCGGGACGTGCTA | 3.32 z-score |
| GACGGACTGGGGACTGGGGTCGTGCTA | -0.632 z-score |
| TTAGGACTGGGACTGGGTTAGTGCTAG | -0.826 z-score |
| GACGGTATCGTTCTCGGGACGTGCTAG | 0.406 z-score |
| TCAGCTTTCCTCGTGATACTGTGCTAG | 1.67 z-score |
| GACGGTTTCGGGTATAGGGACGTGCTA | 4.75 z-score |
| GACGATTCCAGTTGCGAGACGTGCTAG | 0.887 z-score |
| GACGGTTTCCTTCTCCTGATGTGCTAG | 3.1 z-score |

A few entries again (block 3):
| Oligonucleotide | bound/input enrichment [ratio] |
| --- | --- |
| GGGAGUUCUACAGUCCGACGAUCCUGUGUGUGCUGAAUAAAUGGCUUGUAAAGAAGUUUUUCCAAGCUGUAACCCAUGCUGUUAUUAUAGUUGCUGCAAAAUGUUCUUCCUAUUGAUGUUUUUAUUUGUUAACUGAAGGUCUCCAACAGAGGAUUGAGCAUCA | 0.278 |
| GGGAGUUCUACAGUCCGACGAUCCCCCACAUACCAUCUGUGGUCUGGAACUGCACUCUCUUUUUUAAAAAACAUGUAUACAUUUUAGGGCUGUAGAUUUAUUUUCCUGGUUUUGUUUUUCAUUGCUGACUUUUGAGCACAGAACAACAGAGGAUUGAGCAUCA | 2.3 |
| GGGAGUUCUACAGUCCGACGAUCAGUGUGCAGGAAUUCAUGACCUUCACGAGUCAACUGAUUGUGGAACGCUCGGGGAAAGGCAGCAGAGCUUCUGUCAAAGAACAAGAGUAUCUUUGCCAUGUCUACGUCCGGAAUGAUAGUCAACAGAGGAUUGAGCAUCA | 0.126 |
| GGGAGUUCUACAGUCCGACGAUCUCUGGUCACACUCGUGUGUAUGGUGUUUGCUUUGUUGACACUUCACUGGGCAAGUUUUUCAUCGGCCAGUUUUCGGAUGACCGCCACUGUUCCAGAUUUAGGACGCUAGUGGCUCACUAUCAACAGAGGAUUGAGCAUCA | 0.228 |
